Results of several laboratories.
Parts stem from different laboratories: compare values within a part only. Positions count from the first letter of the parent shown.

Sample 1
Target: ABI1, truncated, D143A, DHFR fusion (Arabidopsis thaliana)
Method: DHFR PCA, deep sequencing
Sample: yeast
Setting: methotrexate growth selection, single substitutions
With: (+)-ABA 0.0091 µM
Relative to: wild-type fitted maximum
Reading: higher = stronger binding
Starting sequence: PYL1, truncated, DHFR fusion (Arabidopsis thaliana); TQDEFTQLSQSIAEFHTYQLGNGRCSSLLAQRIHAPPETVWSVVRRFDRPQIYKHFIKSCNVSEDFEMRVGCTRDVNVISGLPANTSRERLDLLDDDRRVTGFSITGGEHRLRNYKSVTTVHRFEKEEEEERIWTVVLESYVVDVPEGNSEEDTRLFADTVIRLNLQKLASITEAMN; partner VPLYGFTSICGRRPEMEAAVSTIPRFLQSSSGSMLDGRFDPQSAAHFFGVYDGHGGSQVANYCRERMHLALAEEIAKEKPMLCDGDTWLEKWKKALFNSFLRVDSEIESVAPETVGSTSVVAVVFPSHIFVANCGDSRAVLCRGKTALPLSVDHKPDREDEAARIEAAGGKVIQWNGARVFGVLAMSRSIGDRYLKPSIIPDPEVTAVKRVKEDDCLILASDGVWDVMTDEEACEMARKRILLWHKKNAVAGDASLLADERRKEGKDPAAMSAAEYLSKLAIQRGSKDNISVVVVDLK
Under “relative binding score”, `Y18E` is recorded as -0.227%.
`I33H`: “relative binding score” -0.603%.
`L112G`: “relative binding score” -4.68%.
For `R69D`, “relative binding score” read -0.496%.
`Q19I` — result for “relative binding score”: 4.9%.
`C60T`: “relative binding score” 0.68%.
`I105D`: “relative binding score” 0.733%.
`I79L` — result for “relative binding score”: 4.82%.
For `D48N`, “relative binding score” read 5.3%.
For `T17G`, “relative binding score” read -2.69%.
`V78Y` — result for “relative binding score”: 102%.
For `V100Y`, “relative binding score” read -11%.
For `F56H`, “relative binding score” read -0.608%.
Under “relative binding score”, `R111D` is recorded as -10.4%.
For `D75T`, “relative binding score” read 41.4%.

Sample 2
Target: Interferon regulatory factor 7, full length, phosphomimetic (IRF7, Homo sapiens, UniProt Q92985, residues 1-503, S101K/S471D/S472D/S475D/S476D/S477D/S483D/S484D/S487D)
Method: protein-binding microarray
Form: double-stranded DNA, one strand shown
Sample: in vitro
Concentration: 250 nM
Setting: 60-bp whole probe
With: salmon DNA 0.4 mg/ml
Relative to: random background probes
Reading: higher = stronger binding
Shared flanks, not repeated: GCCTAGCAC … GTCTTGATTCGCTTGACGCTGCTG
Construct (chain): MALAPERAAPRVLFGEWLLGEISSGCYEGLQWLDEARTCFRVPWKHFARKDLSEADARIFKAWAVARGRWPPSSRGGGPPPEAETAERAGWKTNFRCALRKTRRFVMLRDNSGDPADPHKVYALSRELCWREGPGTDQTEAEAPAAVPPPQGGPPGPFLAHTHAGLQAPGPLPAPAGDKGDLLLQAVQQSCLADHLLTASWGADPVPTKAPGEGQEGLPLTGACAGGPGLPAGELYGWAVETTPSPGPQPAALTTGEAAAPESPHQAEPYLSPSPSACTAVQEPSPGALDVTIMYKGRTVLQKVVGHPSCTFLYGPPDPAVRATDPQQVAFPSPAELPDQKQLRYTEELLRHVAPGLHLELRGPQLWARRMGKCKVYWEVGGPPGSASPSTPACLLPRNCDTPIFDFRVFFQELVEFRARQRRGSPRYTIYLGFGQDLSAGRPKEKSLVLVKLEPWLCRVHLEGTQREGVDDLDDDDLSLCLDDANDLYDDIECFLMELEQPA
With `GACGGTATCGACACTGGCGACGTGCTA` the log fluorescence was -0.403 z-score.
For `GACGGACCGCTACTGCTGACGTGCTAG`, the log fluorescence was -0.809 z-score.
`TTAGGTCTCAGTATCGATTAGTGCTAG` gave a log fluorescence of 1.12 z-score.
`GACGGGTTCGGTATCGGGACGTGCTAG` has a log fluorescence of 1.46 z-score.
For `TCTGATTTCTCAAACAGCTCGTGCTAG`, the log fluorescence was 0.576 z-score.
`TTAGGTCTCTGTTTCGGTTAGTGCTAG` gave a log fluorescence of 5.69 z-score.
The log fluorescence of `GAAGATATCGGGTTTCGAGACGTGCTA` is reported as 3.03 z-score.
The log fluorescence of `ATAGAACTGGGGTATCGATTAGTGCTA` is reported as 0.222 z-score.
`GACGATATCAGAGTGGAGACGTGCTAG` gave a log fluorescence of -0.434 z-score.
With `TTTGGTATCGGTCTCGGTTAGTGCTAG` the log fluorescence was 2.63 z-score.
With `TTAGGTATCCTTTTCCTCTAGTGCTAG` the log fluorescence was 1.39 z-score.
For `GCTGGGTTTTCTTGGCACAGGTGCTAG`, the log fluorescence was -0.617 z-score.
`ATCCCGCCTGCCCCACAGAAGTGCTAG` gave a log fluorescence of 0.535 z-score.

Sample 3
Target: Sal-like protein 4, full length isoform B (SALL4, Homo sapiens, UniProt Q9UJQ4-2, residues 1-616)
Method: universal PBM
Form: double-stranded DNA, one strand shown
Sample: in vitro
Concentration: not given
Setting: 8-mer, flanks averaged, mean of replicates
Reading: higher = stronger binding
Target sequence (chain): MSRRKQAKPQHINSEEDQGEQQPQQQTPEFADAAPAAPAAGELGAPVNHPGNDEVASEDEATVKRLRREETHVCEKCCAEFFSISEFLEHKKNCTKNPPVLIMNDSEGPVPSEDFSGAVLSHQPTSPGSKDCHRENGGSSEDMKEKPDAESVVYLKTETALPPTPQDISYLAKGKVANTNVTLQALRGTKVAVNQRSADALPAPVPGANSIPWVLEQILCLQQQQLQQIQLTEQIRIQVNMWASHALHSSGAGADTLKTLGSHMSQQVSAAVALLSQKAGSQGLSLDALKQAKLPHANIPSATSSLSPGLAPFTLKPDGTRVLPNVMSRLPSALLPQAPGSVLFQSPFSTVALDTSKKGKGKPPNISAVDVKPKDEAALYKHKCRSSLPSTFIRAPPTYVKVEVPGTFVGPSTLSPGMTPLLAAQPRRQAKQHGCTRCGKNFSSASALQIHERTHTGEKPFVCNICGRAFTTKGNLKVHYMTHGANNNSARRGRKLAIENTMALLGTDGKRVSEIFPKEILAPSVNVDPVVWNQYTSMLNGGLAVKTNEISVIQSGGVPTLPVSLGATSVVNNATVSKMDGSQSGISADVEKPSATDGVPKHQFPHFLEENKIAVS
`CCAACATA` has an E-score of 0.178.
For `ACATCCAT`, the E-score was 0.177.
With `CGACTCAC` the E-score was -0.159.
The E-score of `AAATATCA` is reported as 0.33.
With `ACGTTAGT` the E-score was 0.116.
The E-score of `GGATATCA` is reported as 0.132.
`AGGGCTAC` has an E-score of -0.133.
With `GCAAGTCA` the E-score was -0.0613.
`CATGGGAG` gave an E-score of -0.11.
`AACCTTAA` gave an E-score of 0.156.
With `CGGCTAGC` the E-score was -0.206.
The E-score of `AGGGTAGC` is reported as -0.116.
`GGTGCCCA` has an E-score of -0.227.
With `ACCCCACT` the E-score was -0.17.
The E-score of `ACGTATCA` is reported as 0.174.
With `AATTCTAG` the E-score was 0.0993.
`GTAAAAGA` gave an E-score of 0.0626.
`AGTGTCGC` has an E-score of -0.153.
For `CGCGGCTC`, the E-score was -0.268.
With `GTGCGACA` the E-score was -0.193.

Sample 4
Target: UBE2M UBC core domain (UniProt P61081)
Method: yeast two-hybrid
Sample: yeast
Setting: mostly zero background
Relative to: not given
Reading: higher = stronger interaction
B1: CBLL1 RING domain (UniProt Q75N03); chain GEKDDTPVHFCDKCGLPIKIYGRMIPCKHVFCYDCAILHEKKGDKMCPGCSDPVQRIEQCT
B2: TRIM2 RING domain (UniProt Q9C040); chain VRQIDKQFLICSICLERYKNPKVLPCLHTFCERCLQNYIPAHSLTLSCPVCRQTSILPEKGV
B3: TRIM68 RING domain (UniProt Q6AZZ1); chain LVEAIVEEVACPICMTFLREPMSIDCGHSFCHSCLSGLWEIPGESQNWGYTCPLCRAPVQPRNLRP
B4: MDM2 RING domain (UniProt Q00987); chain TQDKEESVESSLPLNAIEPCVICQGRPKNGCIVHGKTGHLMACFTCAKKLKKRNKPCPVCRQPIQMIVLTYFP
B5: TRIM28 RING domain (UniProt Q13263); chain GAEALELLEHCGVCRERLRPEREPRLLPCLHSACSACLGPAAPAAANSSGDGGAAGDGTVVDCPVCKQQCFSKDIVE
B6: UBE4B RING domain (UniProt O95155); chain KNARAEIDYSDAPDEFRDPLMDTLMTDPVRLPSGTIMDRSIILRHLLNSPTDPFNRQTLTESMLEPVPELKEQIQAWMREKQNSDH
Residues (chain): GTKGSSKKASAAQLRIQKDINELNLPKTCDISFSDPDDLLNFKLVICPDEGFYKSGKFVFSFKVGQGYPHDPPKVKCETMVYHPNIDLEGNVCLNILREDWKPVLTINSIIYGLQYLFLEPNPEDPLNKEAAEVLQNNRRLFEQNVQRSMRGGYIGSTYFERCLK
Under “lacZ reporter activity”, `B1 (CBLL1 RING domain)` is recorded as 0.
For `B2 (TRIM2 RING domain)`, “lacZ reporter activity” read 0.
Under “lacZ reporter activity”, `FLSKVEETFQCICCQELVFRPITTVCQHNVCKDCLDRSFRAQVFSCPACRYDLGRSYAMQ (UHRF1 RING domain (UniProt Q96T88))` is recorded as 0.
For `SNNDLASLFECPVCFDYVLPPILQCQSGHLVCSNCRPKLTCCPTCRGPLGSIRNLA (SIAH1 RING domain (UniProt Q8IUQ4))`, “lacZ reporter activity” read 0.
`EDVLSKDAGECAICLEELQQGDTIARLPCLCIYHKGCIDEWFEVNRSCPEHPSD (ZNRF2 RING domain (UniProt Q8NHG8))`: “lacZ reporter activity” 0.
Under “lacZ reporter activity”, `B3 (TRIM68 RING domain)` is recorded as 0.
Under “lacZ reporter activity”, `B4 (MDM2 RING domain)` is recorded as 0.
For `KITELNPHLMCALCGGYFIDATTIVECLHSFCKTCIVRYLETNKYCPMCDVQVHKTRPLL (PCGF2 RING domain (UniProt P35227))`, “lacZ reporter activity” read 0.
`B5 (TRIM28 RING domain)`: “lacZ reporter activity” 0.
`B6 (UBE4B RING domain)`: “lacZ reporter activity” 0.

Sample 5
Organism: Saccharomyces cerevisiae
Effect on: binding
Method: competitive growth deep sequencing
Form: peptide
Strain: cyclin D3-Cln2 fusion strain
Concentration: concentration not given
Setting: tiling library, Cln2 subtracted
Reading: direction not given
For `PPKPLKKLRFDIEGSD`, “growth enrichment score” read -0.34.
`GPVKLEFDVSDGAT` — result for “growth enrichment score”: -0.0508.
`LFVPQRKLEVSTEDVH` — result for “growth enrichment score”: -0.954.
`NCKKRRALDFLSRLPL` — result for “growth enrichment score”: 0.295.

Sample 6
Target: PABPC1L2, full length, GST fusion (mouse, UniProt A0ABA7IW68)
Method: RNAcompete
Form: RNA
Sample: in vitro
Concentration: 20 nM
Setting: 7-mer, probes averaged, single round
Relative to: mean of 7-mers
Reading: higher = stronger binding
Residues (chain): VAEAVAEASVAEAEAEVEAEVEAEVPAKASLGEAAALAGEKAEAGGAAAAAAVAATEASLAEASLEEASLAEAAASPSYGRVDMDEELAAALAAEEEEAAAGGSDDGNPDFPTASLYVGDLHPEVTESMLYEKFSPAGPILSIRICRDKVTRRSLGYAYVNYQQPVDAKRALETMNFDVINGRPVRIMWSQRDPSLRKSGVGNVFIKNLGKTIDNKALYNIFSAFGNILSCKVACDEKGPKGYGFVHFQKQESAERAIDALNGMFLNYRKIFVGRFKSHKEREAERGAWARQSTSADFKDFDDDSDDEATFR
`CGCGAUG` gave a 7-mer Z-score of -0.153.
`CCCUCGA` gave a 7-mer Z-score of -0.255.
For `AAAUCUC`, the 7-mer Z-score was 0.483.
The 7-mer Z-score of `CAGAUAA` is reported as 0.303.
`GUCGCUA` has a 7-mer Z-score of -0.393.
With `ACGAGUG` the 7-mer Z-score was 0.00254.
`CUCAAAU` gave a 7-mer Z-score of -0.17.
`UCUCCAC` gave a 7-mer Z-score of -0.405.
`UAUCAAA` has a 7-mer Z-score of 0.588.
For `GUAAUAA`, the 7-mer Z-score was 0.0352.
The 7-mer Z-score of `AAAGUCC` is reported as 0.635.
`GCUAGAC` gave a 7-mer Z-score of 0.00979.
`UAUUGCC` has a 7-mer Z-score of -0.318.
`UAGAGGG` has a 7-mer Z-score of 0.207.
With `UGCUGCA` the 7-mer Z-score was -0.325.
With `UAGGGCU` the 7-mer Z-score was 0.0243.
For `CACUCUC`, the 7-mer Z-score was -0.421.
`CCCCAGC` has a 7-mer Z-score of -0.157.
The 7-mer Z-score of `UAUACAA` is reported as 0.289.

Excerpt of the above (sample 6):
With `ACGAGUG` the 7-mer Z-score was 0.00254.
With `UAGGGCU` the 7-mer Z-score was 0.0243.
The 7-mer Z-score of `AAAGUCC` is reported as 0.635.
`GCUAGAC` gave a 7-mer Z-score of 0.00979.
`UAGAGGG` has a 7-mer Z-score of 0.207.
`CUCAAAU` gave a 7-mer Z-score of -0.17.
With `UGCUGCA` the 7-mer Z-score was -0.325.
